{"data": "Results collected from several papers", "note": "Protocols differ between the studies behind these lines."}
{"Structure (SMILES)": "C=CC(=O)Nc1cc(Nc2nccc(Nc3cc(Cl)c(F)cc3C(C)(C)O)n2)c(OC)cc1N1CC[C@@H](N(C)C)C1", "test system": "human patients", "conditions": "oral, 50 mg, treatment-emergent adverse events", "measurement": "patients with rash", "value": "50%"}
{"Structure (SMILES)": "Cn1cncc1-c1c(F)cncc1NC(=O)c1c(N)nn2cc(F)cnc12", "test system": "human patients", "conditions": "oral, 220 mg once daily, 2 weeks on 1 week off", "measurement": "patients grade ≥3 Hyperkalemia", "value": "0%"}
{"Structure (SMILES)": "C[C@]1(O)C[C@@](N)(c2ccc(-c3nc4n(c3-c3ccccc3)COc3ccncc3-4)cc2)C1", "test system": "human, advanced or metastatic solid tumours", "conditions": "dose not given, all patients, any grade", "measurement": "patients with Anemia TEAE", "value": "17.6%"}
{"Structure (SMILES)": "COc1ncnn2ccc(-c3cnc4nc(C)n(Cc5nnc([C@@H](C)F)o5)c4c3)c12", "test system": "human", "conditions": "oral, dose not given, grade 4", "measurement": "patients with amylase increased", "value": "0%"}
{"Structure (SMILES)": "COc1ccc(-c2c(-c3ccc(C#N)c(F)c3)nc(N3CCC(N)CC3)n(C)c2=O)cc1F", "test": "measured: biliary tract infection", "test system": "human patients", "conditions": "oral, dose not given, dose escalation", "measurement": "patients with serious TEAE", "value": "2%"}
{"Structure (SMILES)": "O=C1Nc2cc3[nH]nc(-c4ccncc4)c3cc2CN1Cc1ccccc1", "test": "CTCAE v4.03", "test system": "human, relapsed or refractory advanced solid tumours", "conditions": "intravenous, 0.45 mg/kg, pooled schedules", "measurement": "patients with rash", "value": "0%"}
{"Structure (SMILES)": "C[C@@H]1OC(=O)NN=C1c1ccc(-c2ccc(F)cc2)c(C(F)(F)F)c1", "test": "phase I trial, measured: Nausea all grades", "test system": "human patients", "conditions": "5 mg once daily", "measurement": "patients with adverse event", "value": "0%"}
{"Structure (SMILES)": "Cc1cn([C@H]2O[C@@H](CO[P@@](=O)(N[C@@H](C)C(=O)OC(C)C)Oc3ccccc3)[C@H](O)[C@H]2F)c(=O)[nH]c1=O", "test": "measured: common cold", "test system": "human", "conditions": "10 mg", "measurement": "patients with TEAE", "value": "0%"}
